Results collected from several papers.
A part holds a random share of what one study measured. Changes are numbered by the printed parent chain.

Study 1 — method: universal PBM; form: double-stranded DNA, one strand shown; medium: in vitro; concentration: 600 nM; direction: higher = stronger binding
Target: Sal-like protein 4, full length isoform A (SALL4, Homo sapiens, UniProt Q9UJQ4, residues 1-1053)
Chain of UniProt Q9UJQ4 (whole entry, looked up): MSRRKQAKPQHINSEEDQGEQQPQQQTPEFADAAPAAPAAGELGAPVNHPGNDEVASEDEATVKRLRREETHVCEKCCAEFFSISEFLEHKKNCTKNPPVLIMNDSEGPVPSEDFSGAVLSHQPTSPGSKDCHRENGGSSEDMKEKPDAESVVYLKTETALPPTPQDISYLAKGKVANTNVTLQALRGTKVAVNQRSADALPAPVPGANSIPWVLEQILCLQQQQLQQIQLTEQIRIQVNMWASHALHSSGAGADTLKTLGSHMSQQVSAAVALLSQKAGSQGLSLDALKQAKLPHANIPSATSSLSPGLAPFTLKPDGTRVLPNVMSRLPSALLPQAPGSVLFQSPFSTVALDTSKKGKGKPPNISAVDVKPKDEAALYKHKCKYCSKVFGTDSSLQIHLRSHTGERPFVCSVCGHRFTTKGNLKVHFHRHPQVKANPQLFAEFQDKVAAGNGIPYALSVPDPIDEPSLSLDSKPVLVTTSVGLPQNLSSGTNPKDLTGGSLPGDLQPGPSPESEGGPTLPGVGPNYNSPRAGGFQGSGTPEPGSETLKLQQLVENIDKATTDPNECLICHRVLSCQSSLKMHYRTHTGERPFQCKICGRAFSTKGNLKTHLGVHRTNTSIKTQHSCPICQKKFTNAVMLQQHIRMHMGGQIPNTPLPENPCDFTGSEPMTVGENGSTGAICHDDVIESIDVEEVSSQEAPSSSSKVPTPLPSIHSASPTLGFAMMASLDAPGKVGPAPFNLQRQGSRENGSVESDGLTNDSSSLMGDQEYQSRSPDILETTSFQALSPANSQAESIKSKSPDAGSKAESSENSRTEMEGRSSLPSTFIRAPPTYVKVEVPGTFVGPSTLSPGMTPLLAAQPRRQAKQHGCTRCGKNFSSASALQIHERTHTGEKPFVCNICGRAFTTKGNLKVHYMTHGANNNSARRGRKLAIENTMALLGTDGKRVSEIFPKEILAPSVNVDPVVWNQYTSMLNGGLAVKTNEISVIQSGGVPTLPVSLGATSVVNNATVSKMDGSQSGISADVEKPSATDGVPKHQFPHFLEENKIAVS
Setting: 8-mer, flanks averaged, mean of replicates
Sequence | E-score
TCCATACA | 0.171
CGGCGATA | 0.04
CTCCCCAG | -0.201
CCTACTAC | -0.112
AAGGACGG | -0.187
ACCCAATG | -0.115
CTGTATCA | 0.0111
AGACAAGC | 0.00274
GAAACTCA | 0.143
ATGAGCAC | -0.0917
GATCCCAA | -0.171
CAAGTAAG | 0.146
GCGAACTA | -0.00536
CCTCCCCC | -0.253
CCGATAGC | -0.191
CTGAATTC | -0.00932
CCCCGGAC | -0.31
AGGTAGAA | 0.162

Study 2 — target: CCNA2, cyclin fold, Cln2 fusion (human); method: yeast growth competition, sequencing; medium: yeast; setting: strong parent motif; relative to: not given; direction: higher = stronger binding
Starting sequence: PKN2 docking peptide (human); VSAVRKLDFSDTM; partner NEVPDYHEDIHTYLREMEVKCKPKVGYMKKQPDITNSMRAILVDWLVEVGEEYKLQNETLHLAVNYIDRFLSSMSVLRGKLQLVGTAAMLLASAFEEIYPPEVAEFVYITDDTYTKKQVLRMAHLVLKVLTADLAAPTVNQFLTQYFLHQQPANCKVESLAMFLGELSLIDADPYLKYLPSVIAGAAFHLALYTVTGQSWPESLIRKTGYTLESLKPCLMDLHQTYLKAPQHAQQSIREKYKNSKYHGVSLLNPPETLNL
Substitution | normalised enrichment score
VSAVRLLDFSDTM [K6L] | 2.21
VSAVWKLDFSDTM [R5W] | 0.423
VSALRKLDFSDTM [V4L] | 4.73
VSSVRKLDFSDTM [A3S] | 4.82
VEAVRKLDFSDTM [S2E] | 3.36
VSAVEKLDFSDTM [R5E] | -0.0883
VSAVIKLDFSDTM [R5I] | 2.06
VSAVRKLDFCDTM [S10C] | 5.04
VSAVRKPDFSDTM [L7P] | 0.211
VSASRKLDFSDTM [V4S] | 5.61
VSAGRKLDFSDTM [V4G] | 3.6
VSAVRKLDFHDTM [S10H] | 4.9
VSAVRKLDFSDEM [T12E] | 5.31
VSAVRHLDFSDTM [K6H] | 5.01
VSAIRKLDFSDTM [V4I] | 5.12
VSAVRKLDFSDSM [T12S] | 5.41
VSAVRTLDFSDTM [K6T] | 3.73
VSAVRKFDFSDTM [L7F] | 0.0579
VSAVNKLDFSDTM [R5N] | 0.0653
VSAVRKLDKSDTM [F9K] | 0.3

Study 3 — method: RNA Bind-n-Seq; form: RNA; medium: in vitro; concentration: 365 nM; relative to: no-protein control; direction: higher = stronger binding
Target: RNA binding protein fox-1 homolog 2, RRM domain, GST-SBP tag (RBFOX2, Homo sapiens, UniProt O43251-10, residues 100-194)
Setting: natural RNA segment, single round, ends assumed
All sequences stand within: GGGAGUUCUACAGUCCGACGAUC … UGGAAUUCUCGGGUGCCAA
Construct (chain): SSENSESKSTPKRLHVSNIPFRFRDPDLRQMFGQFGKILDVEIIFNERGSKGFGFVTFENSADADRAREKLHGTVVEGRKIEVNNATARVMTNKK
Sequence | RBNS enrichment (R)
GGGAAUGAAUACCUGUUUGGUCCAAACUUACUGUAUCAUAAUGCUGUAUAUGUUGAAAACGUAAUACCUGUUAAUGUCCUAAUGAAUCACGUUUUGCAGAAAACACCGUA | 0.332
CCAAUUUCAGAAAAUCAUUAAAAAGAAAAUAUUGAAAGGAAAAUGUUUUCUUUUUGAAGACUUCUGGCUUCAUUUUAUACUACUUUGGCAUGGACUGUAUUUAUUUUCAA | 0.611
UAAAACCAGUUUCAUAAUUGGUUGUAUAUGUAGACUUGGAGUUUUAUCUUUUUACUUGUUGCCAUGGAACUGAAACCAUUAGAGGUUUUUGUCUUGGCUUGGGGUUUUUG | 0.458
UAAUGUAACUAAGCAUCUCCACUAUGGUGUGUGCCUUUUAUAAAGGAAAAGAGAGAAAAAGGCAAAGCAAGGUUGUGGCCUUAGGUUGGACCUGGAAUAUCCCUUAUUGC | 1.24
ACAAUUCUUUAGCAGUGGACAGAACCCUUAAAUUCUAAAAAGCUACAAACAUCAAGCAAUUCAGGUACUAGGAUAACAUGUCAGUUUUGCUGGGUUGGAGGUGGGUAUCA | 0.324
UCAGUUGACCUUUGUGGAGGUUUUAUCUAUAGAGUAGUUCUUGCCUUGUCAUAGACCUUAUUAGGGUUUGGGGUUUUGUUCCUUCGUUGUUUUCCUCUCACUAUUUAAAG | 0.559
CAGGGCUAGGGUAUCUGUUUAUCUUUCAAAAUGAUAAAUCUGACUCAAGAUUUUUUAUGUAUGUAUAAAUAAGUAUUUUGGUGUGCUACACAGCUUUUUCAAAUUACCAG | 0.542
GCAGUUGUGCCCGUUUUUUGACAUCUGUGUCCCUUCAUGUUGCAUCAUCUGUACUAUUCUGUGUUACUCUUGGUUUCUGGCCACUUUUCAGAAUGAAGAUGAAUGGCCUG | 1.76

Study 4 — method: protein binding microarray; form: double-stranded DNA, one strand shown; medium: in vitro; concentration: not given; relative to: not given; direction: higher = stronger binding
Target: Histone acetyltransferase KAT6A, winged helix 2, GST fusion (KAT6A, Homo sapiens, UniProt Q92794, residues 85-181)
Setting: 8-mer, flanks averaged, mean of 2 arrays, mostly near background
Construct (chain): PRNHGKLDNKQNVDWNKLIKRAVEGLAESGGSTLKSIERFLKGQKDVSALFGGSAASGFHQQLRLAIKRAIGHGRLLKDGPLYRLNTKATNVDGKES
Sequence | E-score
AACTTGAT | 0.238
AGCGTCAG | -0.0273
ATCGCGCG | 0.201
ATGGGGCC | -0.133
CCACCCAG | 0.0915
ATGTGGCA | -0.0933
CTAACGAA | 0.0336
GTATGAGA | -0.0725
GAATGGAC | -0.0846
ACTCATAC | -0.0907
CGGGACCG | 0.246
AAAGACAT | -0.23
TAATATAA | 0.196
CTAAAGTC | -0.124
ACCCTGCA | 0.172
GATAAGCA | 0.0769
TAACGCTA | -0.147
CTCCTCAC | -0.0857
ACGCGGGA | 0.151
CCAGACGA | 0.0102
AAGCCGGG | 0.172
AGTACTTG | 0.0181
CACCTCTA | -0.0133
GGCCCCGA | 0.12
CAACAGAC | -0.0568

Study 5 — method: RNAcompete; form: RNA; medium: in vitro; concentration: 20 nM; setting: 7-mer, probes averaged, single round; relative to: mean of 7-mers; direction: higher = stronger binding
Target: PABPC1L2, full length, GST fusion (mouse, UniProt A0ABA7IW68)
Target sequence (chain): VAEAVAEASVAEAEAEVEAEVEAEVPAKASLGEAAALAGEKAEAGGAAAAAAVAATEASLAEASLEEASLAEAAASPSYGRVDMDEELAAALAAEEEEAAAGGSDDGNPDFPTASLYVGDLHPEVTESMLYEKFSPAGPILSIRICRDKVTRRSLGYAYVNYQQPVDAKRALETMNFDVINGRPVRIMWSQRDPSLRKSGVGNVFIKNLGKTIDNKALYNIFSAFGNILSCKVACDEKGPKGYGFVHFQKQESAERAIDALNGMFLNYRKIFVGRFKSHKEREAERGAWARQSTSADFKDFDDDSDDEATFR
Sequence | 7-mer Z-score
GGCGCUU | -0.179
AAUAAAA | 5.26
GGGCUAA | 0.394
UGAUACG | -0.262
UGGAUAG | 0.0714
AGCAUGA | 0.3
UUACAUU | -0.124
UAGUGCU | -0.257
UUAGUAU | -0.117
AUCUUCC | -0.409
ACAUGCU | -0.0319
UAACAUG | -0.0989
CAAGUUC | -0.307
CUACUGC | -0.391
GCCUAGG | -0.193
CAUAGGA | -0.0591

Study 6 — method: DHFR PCA, deep sequencing; medium: yeast; together with: (+)-ABA 0.39 µM; relative to: wild-type fitted maximum; direction: higher = stronger binding
Target: ABI1, truncated, D143A, DHFR fusion (Arabidopsis thaliana)
Setting: methotrexate growth selection, single substitutions
Starting sequence: PYL1, truncated, DHFR fusion (Arabidopsis thaliana); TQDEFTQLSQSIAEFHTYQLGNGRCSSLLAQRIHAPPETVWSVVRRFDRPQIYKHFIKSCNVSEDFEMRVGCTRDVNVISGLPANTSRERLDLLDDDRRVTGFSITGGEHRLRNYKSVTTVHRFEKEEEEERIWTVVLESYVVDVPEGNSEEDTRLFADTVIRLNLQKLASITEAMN
Substitution | relative binding score
E131T | 65.4%
D144E | 3.29%
R32K | 47.3%
T106E | 12.1%
L138D | -2.93%
Y115R | -0.455%
I105R | -7.09%
F5S | 15.4%
L20W | 9.69%
P83D | 13.3%
F103W | -8.48%

Study 7 — method: protein-binding microarray; form: double-stranded DNA, one strand shown; medium: in vitro; concentration: not given; direction: higher = stronger binding
Target: Max dimerization protein 1, bHLH-zipper, MAX partner unstated (MXD1, Homo sapiens, UniProt Q05195, residues 56-136)
Setting: k-mer, scored over probes, only values ≥0.25
Construct (chain): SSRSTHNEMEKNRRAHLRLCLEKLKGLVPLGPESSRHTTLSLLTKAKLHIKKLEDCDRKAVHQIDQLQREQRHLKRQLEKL
Sequence | E-score
AAACATGT | 0.381
ATTACACG | 0.314
CCACACGC | 0.374
CCCACGGG | 0.31
CGGCACGC | 0.289
AAACGTGA | 0.282
ACGTGAGG | 0.335
CCCGTGCA | 0.269
ACGTGTAA | 0.348
CCACACGA | 0.296
CACATTTC | 0.252
CAGGAGGG | 0.274
CGCGTGAA | 0.314
CATGTCAC | 0.355
CGCATGAC | 0.307
ATCACGCC | 0.28
AAGCATGG | 0.436
CATGCTCC | 0.373
CGCCCCCC | 0.326
CGTGCGGA | 0.288
AACGCACG | 0.356

A few entries again (study 4):
Sequence | E-score
GTATGAGA | -0.0725
GAATGGAC | -0.0846
ACTCATAC | -0.0907
CGGGACCG | 0.246
AAAGACAT | -0.23
TAATATAA | 0.196
CTAAAGTC | -0.124
ACCCTGCA | 0.172
GATAAGCA | 0.0769
TAACGCTA | -0.147
CTCCTCAC | -0.0857
ACGCGGGA | 0.151
CCAGACGA | 0.0102
AAGCCGGG | 0.172
AGTACTTG | 0.0181
CACCTCTA | -0.0133
GGCCCCGA | 0.12
